Results pooled from the literature.
Every numbered part comes from another study and shows a few of its results, in no order. Substitutions count along the parent as printed.

Block 1
Molecule: PhoQ, residues 284 288 289 292 302 303 QWGLFV
Method: Sort-seq
Refers to: YFP reporter
Matrix: E. coli
Setting: PhoQ-PhoP variant library
With: 10 µM Mg2+
Reference: high Mg2+ state
Reading: higher = stronger signaling
It gave 1.57 for fold induction (PhoP, residues 12 14 15 18 19 GMGLL (Escherichia coli, UniProt P23836)).
For PhoP, residues 12 14 15 18 19 LFHKL (Escherichia coli, UniProt P23836): fold induction read 8.49.
For PhoP, residues 12 14 15 18 19 QQAYL (Escherichia coli, UniProt P23836): fold induction read 11.1.

Block 2
Target: JUND, bZIP domain (human)
Method: DHFR protein complementation
Matrix: yeast
Setting: single substitutions, most at no-binding floor
Reference: wild-type JUN-FOS pair
Reading: higher = stronger binding
Parent: JUN, bZIP domain (human); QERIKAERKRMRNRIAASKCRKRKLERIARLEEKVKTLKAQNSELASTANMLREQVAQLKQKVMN; partner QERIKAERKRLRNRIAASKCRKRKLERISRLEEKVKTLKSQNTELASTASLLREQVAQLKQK
For `R30M`, the binding fitness was -0.566 natural log.
For `A40I`, the binding fitness was -0.782 natural log.
The binding fitness of `V56C` is reported as -1.19 natural log.
`A49F` gave a binding fitness of -1.02 natural log.
`T48H` gave a binding fitness of -0.907 natural log.
`T48Y` gave a binding fitness of -0.923 natural log.
With `A40M` the binding fitness was -0.895 natural log.
`A46T` has a binding fitness of -0.497 natural log.
With `A57R` the binding fitness was -0.843 natural log.
The binding fitness of `E44A` is reported as -0.785 natural log.
For `A57E`, the binding fitness was -0.486 natural log.
With `A57T` the binding fitness was -0.769 natural log.
For `E54H`, the binding fitness was -0.975 natural log.

Block 3
Target: RING finger protein unkempt homolog, zinc fingers 1-6, GST-SBP tag (UNK, Homo sapiens, UniProt Q9C0B0, residues 30-357)
Method: RNA Bind-n-Seq
Molecule type: RNA
Matrix: in vitro
Concentration: not given
Setting: RNA with constant flanks, human-mouse chimeric sites, ends assumed
Reference: input RNA pool
Reading: higher = stronger binding
All sequences stand within: GGGAGUUCUACAGUCCGACGAUC … CAACAGAGGAUUGAGCAUCA
Construct (chain): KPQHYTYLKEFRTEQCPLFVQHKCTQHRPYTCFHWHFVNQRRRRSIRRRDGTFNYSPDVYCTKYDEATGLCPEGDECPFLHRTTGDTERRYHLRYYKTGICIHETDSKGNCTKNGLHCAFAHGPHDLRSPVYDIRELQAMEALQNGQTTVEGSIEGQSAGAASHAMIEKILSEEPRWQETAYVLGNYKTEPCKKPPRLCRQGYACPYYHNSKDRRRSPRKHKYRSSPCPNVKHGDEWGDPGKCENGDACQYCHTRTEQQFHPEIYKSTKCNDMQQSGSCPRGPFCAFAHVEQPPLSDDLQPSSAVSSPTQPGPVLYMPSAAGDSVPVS
`GUGCCCUUCUCGCUGCUGCGGAGCCCGCCCAGCUGGGCAUUCCGGGACUGGUACCCUGCACACAGCCGCCUCUUCGACCAGGCCUUCGGGGUGCCCCGGUUGCCCGAUGAGUGGUCGCAG` has a bound/input enrichment of 0.066 ratio.
`GCUCUUGGGAAUGUAAUCAGCGCCUUGGGGGACAAGAGCAAGAGGGCCACCCAUGUCCCUUACAGAGACUCUAAGCUGACAAGACUCUUGCAGGAUUCCCUUGGGGGUAACAGCCAAACC` has a bound/input enrichment of 0.117 ratio.
For `CCCACGCCUCCUCUCCCACAGGCCCAAGAUAUAACCCACCAGUGCCUUUUGUCUUCCUGUCAGCUCUGUCAAUCACGCCUGUCCUCUGUCCCUCUCACCAAGUGCCCAAAGUGGGGAGGG`, the bound/input enrichment was 1.91 ratio.
The bound/input enrichment of `AGUGUGCAGGAAUUCAUGACCUUUACAAGUCAACUGAUUGUGGAGCGCUCGGGGAAAGGCAGCAGAGCUUCUGUCAAAGAACAAGAGUAUCUUUGCCACGUCUACGUCCGGAGCGACAGU` is reported as 0.127 ratio.
The bound/input enrichment of `UUACCCGAGAACGAGGAUGAGCUGGAGAGCACCAACAGACGCUAUACCAAGAGGGACUGCAGCACUUUCCUCAGAACUAGUGAGACGGGCAUCGUGGAUCAGGUUAUGGUCACUCUCAAC` is reported as 0.26 ratio.
The bound/input enrichment of `GAAUCCUACUCAGGCGGAUUUUGCAACACCAAGCUCACAGCAGCAGCAUCUUAGUCACAGUAGGGUAGUUUUGGGGCUCUGUGGCCAGGGUUUUAUUCAUGUGCAGGUUUGGAAAAUGUA` is reported as 1.54 ratio.
The bound/input enrichment of `GAGUCGAGCAAACUUGAAACAAUUCGUUAUCUUGCAGCCUCAGUGUUCACUUGCUUGUGGCAAUAGCUGGGGUUUUAUAGGUUCUGGAAGGAGAACUGACGAUGAUGUCCUGCUGUGUGC` is reported as 0.109 ratio.
The bound/input enrichment of `UACUCAACUUUCUUGCCACAUUUUGAAUUCCAAGACAUUAUCCCUCCAGAUGACUUCCUAACGAGUGAUGAAGAGCAAGAUUUGGUUUUAUUUGGAAGUUUGAGAGGACAAGUUGUUGGA` is reported as 0.222 ratio.

Block 4
Target: CCNE1, cyclin fold, Cln2 fusion (human)
Method: yeast growth competition, sequencing
Matrix: yeast
Setting: weak parent motif
Reference: not given
Reading: higher = stronger binding
Parent: MICAL3 docking peptide (human); LQLRRQLSFSEDS
For `LQLRRQLSNSEDS [F9N]`, “normalised enrichment score” read -0.0453.
`LQLRRQLSFSIDS [E11I]`: “normalised enrichment score” 0.325.
`LQCRRQLSFSEDS [L3C]`: “normalised enrichment score” 5.37.
`LQQRRQLSFSEDS [L3Q]`: “normalised enrichment score” 0.0512.
For `LQLRRQLEFSEDS [S8E]`, “normalised enrichment score” read 0.229.
`LQLRRMLSFSEDS [Q6M]`: “normalised enrichment score” 0.73.
Under “normalised enrichment score”, `LQLRRQLSLSEDS [F9L]` is recorded as -0.173.
`LQLLRQLSFSEDS [R4L]`: “normalised enrichment score” 0.259.
For `LQLRRQLSFSESS [D12S]`, “normalised enrichment score” read 0.804.
`LQLRRQSSFSEDS [L7S]`: “normalised enrichment score” -0.349.

Some of these lines once more (block 2):
With `A40M` the binding fitness was -0.895 natural log.
For `A57E`, the binding fitness was -0.486 natural log.
`A49F` gave a binding fitness of -1.02 natural log.
`T48H` gave a binding fitness of -0.907 natural log.
The binding fitness of `E44A` is reported as -0.785 natural log.
